Published values from different studies.
Every numbered part comes from another study and shows a few of its results, in no order. Changes are numbered by the printed parent chain.

Study 1
Target: RNA binding protein fox-1 homolog 2, RRM domain, GST-SBP tag (RBFOX2, Homo sapiens, UniProt O43251-10, residues 100-194)
Method: RNA Bind-n-Seq
Form: RNA
Matrix: in vitro
Concentration: 365 nM
Setting: natural RNA segment, single round, ends assumed
Baseline: no-protein control
Reading: higher = stronger binding
Shared flanks, not repeated: GGGAGUUCUACAGUCCGACGAUC … UGGAAUUCUCGGGUGCCAA
Target sequence (chain): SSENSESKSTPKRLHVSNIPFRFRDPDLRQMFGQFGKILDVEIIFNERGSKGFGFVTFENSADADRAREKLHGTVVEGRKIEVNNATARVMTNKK
Sequence	RBNS enrichment (R)
UGCUGUCUUUGUUUUCCUUUGUCUUUCUCCUGUUUGCCAAAAUUCAAUUCAAGUUGUGAUUUUCAAGAGGACCUCAAAACAAUUCUGUACUUAAUAUAAAAAUCAAUGUC	0.505
GCUCAGUGGUUAAGAGUACCUGUUGCUGUUGCAGAGGACCUGGAUUGGAUUCCCAGCACCCACUCAGUGGCCCACAACUAUCCAAUACUCCCGAUGCAUGGGAUCCAGUG	11
AGGUGAAAGAAAAUGUCAUGCAUGUAAAGAUCACAUCUGCCACUACCUUGGCACUCAGGUGCUGGUAUGUGCAUUCUUGCUUCCAAAGGAUUGACAGUAACAAAUUCUCA	19.1
UAAAAUAGAGCAGAAAAACACAAAAAGAGAACACUGGUUCAGACAUUCAGUGGGCAAGUAAAUUAUGGACUGCAAAAUAAUGAUUUUUAUUCAAGAAAGCUUUAAAAGUU	1.02
ACAAAGAAUGUAUACUCAUCUUUUUUGGCCCAUUACAAUACUGCUUUCUCAGGUUCUUAACAGCCUGUGCAAACUCCCUGACUAGAUGGUCUGUCACUCCUAUCAUUACC	0.309
AUCACACGAUAUUAGGUACUAAUUAUACCCUCAUUGCUUUAAAAUACACAUCAGGGUCUCUUUUAAAAAUAGAACAAAUCUGUAGUAUUUAAGUUUAAAAAUCUUAAGUU	0.4
AGAGCUUGGCGAGUACAAAGGGAGAGGAAGACAUUUGAACUUUAGAACUUUGUUUCAGCGUGACUCUCCCACCCUGCCCCAAGUUGAAUGUUCCCUUCACAUUGAAUCAA	0.868
AACAGACUGUGUAGGAAAAAUCAGGAUUAAAGAGUGCUGCCUUUAUGGCUCCUUCUUCAGAAUAGGUGCAGACCCCUCCCCGUGCCCGUUCCCUGCCACCCGGGGUAAGG	0.553
AGAUUAUUCAAUAAUUGAGAAACUUUAUGUGUAAUCAUGAGAGUAUAAGAAUCUGGAUUAUCUAACAUUGUUAGCCCUGUGUAUGUACAGUUCAAAAAGUUCAUUUAUAA	0.545
ACAUGAAUUACCAAAGAAAGCACCUUCUUGGCCUGACAGACCAUUGGUGGGGCUGGCACGAAUCCAGAUCUGGAUCCUACAUCUGUUGGGUCUUAGGCCUCCUUCCCUCC	0.385
AAGAAAGCUUCUUCCAACUUCUGUUUCUGGUGGGAGCGGGGGGACUCCCACUUUUUACAAUGUCUAGUCAUUUUCAUAGUGCCCCACAUUCAAGAACCAGACAACAGGAU	0.564
GCAGCUGGACUUGAACCCACAAUGGCUUGUGUAAAUUCGUAAAUUUCAUGGUUUCUAGGAAAAGCUGCAUUGGGGUGGGGAGACCCAGUUUGCCUCAUAGGCAGAGGAUU	0.281

Study 2
Target: RING finger protein unkempt homolog, zinc fingers 1-6, SBP tag (UNK, Homo sapiens, UniProt Q9C0B0, residues 30-357)
Chain of UniProt Q9C0B0 (30-357, looked up): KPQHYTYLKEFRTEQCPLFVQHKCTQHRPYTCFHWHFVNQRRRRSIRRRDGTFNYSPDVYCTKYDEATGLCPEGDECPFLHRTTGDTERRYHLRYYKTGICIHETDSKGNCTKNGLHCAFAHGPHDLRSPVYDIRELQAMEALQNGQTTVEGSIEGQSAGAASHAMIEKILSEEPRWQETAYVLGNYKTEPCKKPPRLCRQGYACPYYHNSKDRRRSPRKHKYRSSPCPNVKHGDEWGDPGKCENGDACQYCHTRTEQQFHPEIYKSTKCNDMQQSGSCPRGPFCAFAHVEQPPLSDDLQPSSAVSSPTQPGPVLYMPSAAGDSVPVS
Method: RNA Bind-n-Seq
Form: RNA
Matrix: in vitro
Concentration: 100 nM
Setting: RNA with constant flanks, vertebrate orthologous sites, ends assumed
Baseline: input RNA pool
Reading: higher = stronger binding
Shared flanks, not repeated: GGGAGUUCUACAGUCCGACGAUC … CAACAGAGGAUUGAGCAUCA
Sequence	bound/input enrichment [ratio]
GCAAUGAAAAUUCAGCCCUUCUCCCAGCCCCUUUUUUACUAGGAGAUACAAACGUUACCAUAGAAGAGCAAUUAAACUCAAUAAAUUUAUCUUUUCAGGAUGAUCCAGACUCCAGUACCA	1.66
UCCAGCCUCAACUGACUGUUUCACAGCAUUCCUUACACAGCUAUUUAACAAGUACAAGUGGAGUUAACUUUCAGGAUACAUCUAGGCACUCAGCGUUAUCCUGCAGUCCAGUUGGAGAUG	0.218
GGUCAUGUAUAGCAAUUAGAAUGGGUUGCCCUUCUACUUCUCCCAAGAAGAAAUCCCAUAUAGAUUCCUUUCAUGUCAGAUUAUACUGUUCUGAUUUUAUUUUCUAUUAUUUUUACAUAU	0.573
UCAGUCCCCUGGGCCGGGACAGAUUUUUUUUAACGUCUUGAAACUUAAACUCUGUGCUUGUAGGAGACUGUAACCUUUUUGUCUUUUUUUUUUUUUUAAAACAAACAACCUCCAUCUCCA	0.802
AAUAGUUUUAAGCUUGUUUGCACAGUUUUUUUUUCCCACUGGAGAUGGAAUUCAUUGCCUUAGGUCUUUUUAAUAGUGUAUUGUUAUUGUUGGGCUGGCUCUAUGCUUGAAAACCAGUUU	2.29
GCUUCUGUGUAGCUAUUAGAGCAGGGUCUUCCUCUCCUCCCAGGAAGAAAAAUGUGCAUUUAGAUUCCUCAUACAUUUGCUUGUAUGGCUCUGUUUUUGUUUUCUAUUUUUACAUUUCCU	0.579
UUCACUACCUGACUAGAGUCGAGGUUACAGAGUUCGAGGACAUCAAAUCAGGUUACAGAAUAGAUUUUUAGACAAAUUUCUUGCUUGGUUCUAAAUUUAAUUUACAAAAAGGAAGACUGU	0.573

Study 3
Target: Histone acetyltransferase KAT6A, winged helix 2, GST fusion (KAT6A, Homo sapiens, UniProt Q92794, residues 85-181)
Method: protein binding microarray
Form: double-stranded DNA, one strand shown
Matrix: in vitro
Concentration: not given
Setting: 8-mer, flanks averaged, mean of 2 arrays, mostly near background
Baseline: not given
Reading: higher = stronger binding
Construct (chain): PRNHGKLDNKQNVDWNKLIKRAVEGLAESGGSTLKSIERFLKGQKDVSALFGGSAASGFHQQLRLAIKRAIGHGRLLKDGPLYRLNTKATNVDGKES
Sequence	E-score
GCCGCGCC	0.243
ACAATGGG	-0.143
CCGTCCAA	0.0198
GACTAATA	-0.0378
GCCGGACA	0.174
AGTGGCGC	0.0826
GCTTGGTA	0.0554
ATCCCGCA	-0.00504
CAATGATA	-0.0935
AACATGTG	-0.234
CCAGTCCG	0.112
AGTTCCTC	-0.173
CTCTGCCA	-0.175
CTTATCCC	-0.175
CATGCGAG	-0.252
GATCACGC	0.139
CATATCTA	0.0815
ACTACACT	-0.0144
CTTAGCTC	0.00296
CACAAACA	0.0661
AACCACGG	-0.147
ATTCACTG	-0.0968
CGCACCGA	0.0275
CGGTTGTA	-0.0897
AGTCAGCG	-0.272

Study 4
Target: ABI1, truncated, D143A, DHFR fusion (Arabidopsis thaliana)
Method: DHFR PCA, deep sequencing
Matrix: yeast
Setting: methotrexate growth selection, single substitutions
Together with: (+)-ABA 710 µM
Baseline: wild-type fitted maximum
Reading: higher = stronger binding
Starting sequence: PYL1, truncated, DHFR fusion (Arabidopsis thaliana); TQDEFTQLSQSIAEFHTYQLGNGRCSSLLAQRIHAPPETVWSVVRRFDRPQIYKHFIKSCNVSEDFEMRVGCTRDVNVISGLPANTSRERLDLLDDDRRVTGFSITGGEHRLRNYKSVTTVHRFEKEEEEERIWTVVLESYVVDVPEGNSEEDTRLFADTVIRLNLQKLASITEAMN
Variant	relative binding score [%]
V43T	97.3
I162M	58
K126L	107
K126F	105
V161P	-4.23
M68H	100
E174P	81.8
T120F	5.93
V145Y	59.5
R98S	108
E127P	114
D96T	73.8
R111Q	84.5
A158I	103

Study 5
Target: Interferon regulatory factor 5, full length, phosphomimetic (IRF5, Homo sapiens, UniProt Q13568-2, residues 1-514, S451D/S453D/S456D/S462D)
Method: protein-binding microarray
Form: double-stranded DNA, one strand shown
Matrix: in vitro
Concentration: 940 nM top
Setting: 60-bp whole probe
Together with: salmon DNA 0.4 mg/ml
Baseline: random background probes
Reading: higher = stronger binding
Shared flanks, not repeated: GCCTAGCAC … GTCTTGATTCGCTTGACGCTGCTG
Sequence	fitted relative affinity
TTAGGACTGGACTTTCGGGTAGTGCTA	0.851 z-score
GACGGTCTCGGTCTCGGCACGTGCTAG	4.22 z-score
TTTTTTTTCATCATTGCCTGGTGCTAG	1.55 z-score
TGTGCTTTCCTCGTGATGCTGTGCTAG	-0.229 z-score
GACGATATCGGGTATCGAGAAGTGCTA	0.752 z-score
GACGGTATCCGTCTCGGGACGTGCTAG	0.743 z-score
GCCGGTTTCCTTTTCCTGACGTGCTAG	2.54 z-score
GACGGTTTCCAACTGCTGACGTGCTAG	0.386 z-score
TTTGCTTTCCTTCATGCACTGTGCTAG	0.863 z-score
TGAGGTTTCCTACTGCTTTAGTGCTAG	0.57 z-score
ATAGATCTCAGTTTCGATTAGTGCTAG	7.9 z-score
TTAGATTCCGGTTTCGGTTAGTGCTAG	9.1 z-score
TTAGATCTCAGTACCGATTAGTGCTAG	0.451 z-score
GACGAACTGAATTTCGAGACGTGCTAG	-0.154 z-score
TCAAAGATTCCTCTCACACTGTGCTAG	0.416 z-score
GAAGGTTTCCTTCTCCTGACGTGCTAG	1.28 z-score
TTAGGTTCCGGTTTCGGTTGGTGCTAG	9.04 z-score
GACGATTGCAGTTTCGAGACGTGCTAG	3.27 z-score

Some of these lines once more (study 2):
Sequence	bound/input enrichment [ratio]
GCAAUGAAAAUUCAGCCCUUCUCCCAGCCCCUUUUUUACUAGGAGAUACAAACGUUACCAUAGAAGAGCAAUUAAACUCAAUAAAUUUAUCUUUUCAGGAUGAUCCAGACUCCAGUACCA	1.66
UCCAGCCUCAACUGACUGUUUCACAGCAUUCCUUACACAGCUAUUUAACAAGUACAAGUGGAGUUAACUUUCAGGAUACAUCUAGGCACUCAGCGUUAUCCUGCAGUCCAGUUGGAGAUG	0.218
GGUCAUGUAUAGCAAUUAGAAUGGGUUGCCCUUCUACUUCUCCCAAGAAGAAAUCCCAUAUAGAUUCCUUUCAUGUCAGAUUAUACUGUUCUGAUUUUAUUUUCUAUUAUUUUUACAUAU	0.573
UCAGUCCCCUGGGCCGGGACAGAUUUUUUUUAACGUCUUGAAACUUAAACUCUGUGCUUGUAGGAGACUGUAACCUUUUUGUCUUUUUUUUUUUUUUAAAACAAACAACCUCCAUCUCCA	0.802
AAUAGUUUUAAGCUUGUUUGCACAGUUUUUUUUUCCCACUGGAGAUGGAAUUCAUUGCCUUAGGUCUUUUUAAUAGUGUAUUGUUAUUGUUGGGCUGGCUCUAUGCUUGAAAACCAGUUU	2.29
